Measurements of several laboratories.
± marks the error that the study gave.

C[S]1CC[S]2CC[P](CO)(CO)[99Tc+]12.[C-]#[O+].[C-]#[O+].[C-]#[O+]
uptake in small intestine (CF-1 mouse; intravenous, 24 h): 0.4 %ID

CN(C)C(CNC(=O)Nc1cc(C(F)(F)F)ccc1N1CCOCC1)c1ccncc1 (centres unmarked)
serum indirect bilirubin (mouse, serum; intraperitoneal, 120 mg/kg single dose): 0.2 mg/dL

CCN(CCCCOc1ccc(CCC(=O)N2CCC(Cc3ccccc3)CC2)cc1OC)Cc1ccccc1
total number of metabolites (Sprague-Dawley rat, both sexes, faeces, urine and plasma; oral, 25 mg/kg): 22

C[C@@H](O)[C@H](NC(=O)[C@H](CCCCN)NC(=O)COCCN)C(=O)N[C@@H](CCCNC(=N)N)C(=O)NC(C)(C)C(=O)N[C@@H](CCCNC(=N)N)C(=O)NC(C)(C)C(=O)N[C@H](C(=O)N[C@@H](CO)C(=O)N[C@@H](Cc1c[nH]cn1)C(=O)N[C@@H](Cc1ccc(O)cc1)C(=O)NCC(=O)O)[C@@H](C)O
monocytes (C57BL/6 mouse, blood; intravenous, 50 mg/kg, 10 h; reference: leukocytes): 3 to 5%

CC[C@H](C)[C@H](NC(=O)[C@H](C)NC(=O)CNC(=O)[C@@H](N)CCSC)C(=O)N[C@@H](C)C(=O)N[C@@H](CCCCN)C(=O)N[C@@H](CC(C)C)C(=O)N[C@H](C(=O)N[C@@H](C)C(=O)N[C@@H](CCCCN)C(=O)N[C@@H](Cc1ccccc1)C(=O)NCC(=O)N[C@@H](Cc1c[nH]c2ccccc12)C(=O)N1CCC[C@H]1C(=O)N[C@@H](Cc1ccccc1)C(=O)N[C@H](C(=O)N[C@@H](CCCCN)C(=O)N[C@@H](CCCCN)C(=O)N[C@@H](Cc1ccccc1)C(=O)N[C@@H](Cc1ccc(O)cc1)C(=O)N[C@@H](CCCCN)C(=O)N[C@@H](CCC(N)=O)C(=O)N[C@@H](CCCNC(=N)N)C(=O)N[C@@H](CCSC)C(=O)N[C@@H](CCC(N)=O)C(=O)N[C@@H](Cc1ccccc1)C(=O)N[C@H](C(=O)NCC(=O)N[C@@H](CCC(N)=O)C(=O)NCC(=O)N[C@@H](Cc1c[nH]c2ccccc12)C(=O)N[C@H](C(=O)N[C@H](C(=O)N[C@@H](CC(=O)O)C(=O)N[C@@H](CCC(N)=O)C(=O)N[C@H](C(=O)N[C@@H](CCC(=O)O)C(=O)N[C@@H](CCCCN)C(=O)N[C@@H](Cc1c[nH]c2ccccc12)C(=O)N[C@@H](CC(C)C)C(=O)N[C@@H](CCCCN)C(=O)N[C@@H](CCCNC(=N)N)C(=O)N[C@@H](Cc1c[nH]cn1)C(=O)O)[C@@H](C)CC)[C@@H](C)CC)[C@@H](C)O)[C@@H](C)CC)[C@@H](C)CC)C(C)C
Tm (thermal unfolding, far-UV CD; 10 mM sodium phosphate; 5-20 µM, pH 7.2): 43.4 ± 0.3 °C

CC(=CCC(O)C(C)=Cc1csc(C)n1)CC=CC(C)C(O)C(C)C(=O)C(C)(C)C(O)CC(=O)O (centres unmarked)
half-life (human, plasma; intravenous infusion, 11.3 mg/m2 KOS-1584, 3 h infusion, cycle 1): 44 ± 15.9 h

[11CH3]n1c(=O)n(CCCO)c(=O)c2c1nc(Oc1cccc(OC(F)(F)F)c1)n2Cc1ccc(Cl)cc1
tracer uptake (ex vivo biodistribution; Sprague Dawley rat, muscle; 60 min post injection): 0.36 ± 0.05 %ID/g

CC(CCC(=O)NCC(=O)O)C1CCC2C3CCC4CC(OC5OC(C(=O)O)C(O)C(O)C5O)CCC4(C)C3CC(O)C12C (centres unmarked)
plasma concentration (human, SLCO1B1 *5/*35, plasma; geometric mean, sex-adjusted): 57.3 ng/mL

COc1ccc(C)cc1NC(=O)OC1CC2CCCC(C1)N2Cc1ccc(CC[18F])cc1 (centres unmarked)
tracer uptake (mouse, fat; 2 h, tumour-bearing): 12.6 %ID/g

CC[C@H](C)C(=O)N1CCC(NC(=O)Nc2ccc(OC(F)(F)F)c(F)c2)CC1
subjects with dermatitis TEAE (healthy volunteers; oral, 8 mg single dose, device site dermatitis): 0%

CSCC[C@H](NC(=O)[C@H](Cc1c[nH]c2ccccc12)NC(=O)CNC(=O)[C@H](Cc1ccc(O)cc1)NC(=O)[C@H](C)NC(=O)[C@H](CCC(=O)O)NC(=O)[C@H](Cc1c[nH]cn1)NC(=O)[C@H](Cc1c[nH]cn1)NC(=O)[C@H](Cc1c[nH]cn1)NC(=O)[C@H](Cc1c[nH]cn1)NC(=O)[C@H](Cc1c[nH]cn1)NC(=O)[C@H](Cc1c[nH]cn1)NC(=O)CN1CCN(CC(=O)O)CCN(CC(=O)O)CCN(CC(=O)O)CC1)C(=O)N[C@@H](CC(=O)O)C(=O)N[C@@H](Cc1ccccc1)C(N)=O
tumour-to-kidney ratio (MF1 nude mouse, male, AR-42J xenograft; intravenous, 0.2 µg, 4 h, 111In-labelled; reference: tumour over kidney): 0.2

COc1cc(-c2cncc(-c3ccc(N4CCN([11CH3])CC4)cc3)c2C)cc(OC)c1OC
time to peak brain SUV (dynamic PET; Sprague-Dawley rats male, whole brain; intravenous): ≤ 1 min

C(#Cc1cncc(OC[C@@H]2CCN2)c1)c1ccccc1
Papp B→A (Caco-2; 100 µM, 2 h, pH 7.4): 23.4 ×10⁻⁶ cm/s

CC(C)[C@H](NC(=O)CNC(=O)[C@H](CCC(N)=O)NC(=O)[C@H](C)N)C(=O)O
subjects with any adverse event (human; 3 mg/kg single dose): 33.3%

CC(=O)NCC(=O)NCC(=O)N[C@@H](CCCCNP(=O)(O)O)C(=O)NCC(=O)NCC(N)=O
initial velocity (non-enzymatic hydrolysis; 100 µM, pH 7.8, no enzyme): 4.95e-09 M/s

COCCOCCOCCOc1ccc(/C=C/c2c(I)c(C)c3n2[B-](F)(F)[N+]2=C(C)C(I)=C(C)C2=C3c2cc(OC)cc(OC)c2)cc1
singlet oxygen quantum yield (DPBF absorbance decrease; DMSO; reference: methylene blue): 0.78

CCCCCCCCCCCCC(=O)O.O=C1CCCC2C3CCCN4CCCC(CN12)C34 (centres unmarked)
standard enthalpy of micellization (electrical conductivity; water; 293.15 K, critical micelle concentration): -5.1 kJ/mol

C=Cc1cc(O)cc2nc(-c3ccc(O)c([76Br])c3)oc12
tissue uptake (female C57BL/6 mouse, uterus; 6 h, high dose): 0.09 ± 0.03 %ID/g

CC[C@H](C)[C@H](NC(=O)[C@H](CCCCN)NC(=O)CNC(=O)[C@H](CC(C)C)NC(=O)[C@@H](NC(=O)[C@H](C)NC(=O)[C@H](CCCCN)NC(=O)CNC(=O)[C@H](C)NC(=O)CNC(=O)[C@H](CCCCN)NC(=O)[C@H](CCSC)NC(=O)[C@H](CCCCN)NC(=O)[C@@H](NC(=O)[C@H](Cc1c[nH]c2ccccc12)NC(=O)[C@H](CC(C)C)NC(=O)[C@H](CCC(N)=O)NC(=O)[C@H](CCCCN)NC(=O)[C@H](CC(C)C)NC(=O)[C@@H](N)CC(C)C)[C@@H](C)O)C(C)C)C(=O)N[C@@H](CCCCN)C(=O)NCC(=O)N[C@@H](CC(C)C)C(=O)N[C@@H](CC(C)C)C(=O)O
Stern-Volmer constant (acrylamide quenching; DOPC vesicles, 250 µM lipid; 2 µM, with: acrylamide): 1.67 ± 0.19 M⁻¹

CN[C@](C)(C[18F])C(=O)O
tracer uptake (mouse, blood; 2 h, tumour-bearing): 0.6 %ID/g

CCCCCCCC/C=C\CCCCCCCCOP(O)(O)=S.N
CL/F (mouse, female, irradiated; subcutaneous, single dose 24 h after irradiation, with: 15.6 Gy partial-body irradiation): 629 mL/h/kg

CC(C)[C@H](NC(=O)CNC(=O)[C@H](CCC(N)=O)NC(=O)[C@H](C)N)C(=O)O
subjects with Possibly related AE (healthy male volunteers; intravenous, 15 mg/kg/h, 2 h, with: LPS 2 ng/kg): 0%

CC(C)C[C@H](NC(=O)[C@H](CCCCN)NC(=O)[C@H](CCC(=O)O)NC(=O)[C@H](C)NC(=O)[C@@H](NC(=O)[C@H](CCCCN)NC(=O)[C@H](CC(=O)O)NC(=O)[C@H](Cc1ccc(O)cc1)NC(=O)[C@H](Cc1ccccc1)NC(=O)[C@H](C)NC(=O)[C@H](CCCCN)NC(=O)[C@H](CC(C)C)NC(=O)[C@H](Cc1c[nH]c2ccccc12)NC(=O)[C@@H](N)CC(=O)O)C(C)C)C(=O)N[C@@H](CCCCN)C(=O)N[C@@H](CCC(=O)O)C(=O)N[C@@H](C)C(=O)N[C@@H](Cc1ccccc1)C(=O)N1CCC[C@H]1C(=O)N[C@@H](CC(=O)O)C(=O)N[C@@H](Cc1c[nH]c2ccccc12)C(=O)N[C@@H](C)C(=O)N[C@@H](CCCCN)C(=O)N[C@@H](C)C(=O)N[C@@H](C)C(=O)N[C@@H](Cc1ccc(O)cc1)C(=O)N[C@@H](CC(=O)O)C(=O)N[C@@H](CCCCN)C(=O)N[C@@H](C)C(=O)N[C@@H](C)C(=O)N[C@@H](CCC(=O)O)C(=O)N[C@@H](CCCCN)C(=O)N[C@@H](C)C(=O)N[C@@H](CCCCN)C(=O)N[C@@H](CCC(=O)O)C(=O)N[C@@H](C)C(=O)N[C@@H](C)C(=O)O
Cmax (cynomolgus monkey female, plasma; intravenous infusion, 25 mg/kg, day 1, 30 min infusion): 392 µg/mL

CCc1c2c(nc3ccc(OC4OC(C(=O)O)C(O)C(O)C4O)cc13)-c1cc3c(c(=O)n1C2)COC(=O)C3(O)CC (centres unmarked)
Tmax (human patients, plasma; intravenous, 177 mg/m^2 of parent drug): 5.35 h

N=C(N)NCc1ccc(C(=O)NCCCC[C@H](NC(=O)N[C@@H](CCC(=O)O)C(=O)O)C(=O)O)cc1[131I]
tissue uptake (SCID mouse, PC-3 xenografts, stomach; 4 h): 0.46 ± 0.23 %ID/g

CC[C@H](C)[C@H](NC(=O)[C@@H](N)C(C)C)C(=O)N[C@@H](Cc1c[nH]cn1)C(=O)N[C@@H](CCCNC(=N)N)C(=O)N[C@@H](C)C(=O)NCC(=O)N[C@@H](CC(C)C)C(=O)N[C@@H](CCC(N)=O)C(=O)N[C@@H](Cc1ccccc1)C(=O)N1CCC[C@H]1C(=O)N[C@H](C(=O)NCC(=O)N[C@@H](CCCNC(=N)N)C(=O)N[C@H](C(=O)N[C@@H](Cc1c[nH]cn1)C(=O)N[C@@H](CCCNC(=N)N)C(=O)N[C@@H](CC(C)C)C(=O)N[C@@H](CC(C)C)C(=O)N[C@@H](CCCNC(=N)N)C(=O)N[C@@H](CCCCN)C(N)=O)C(C)C)C(C)C
HD10 (haemolysis; human red blood cells; 1 h): 64 µM

CN(C)c1ccc(C(=O)NCCCCN2CCN(c3ccccc3O[11CH3])CC2)cc1
brain uptake (Sprague Dawley rat, male, total brain; intravenous, 5 min): 0.189 %ID/g

CC(C)C[C@H](NC(=O)[C@H](CCCCN)NC(=O)[C@H](C)NC(=O)[C@@H]1CCCN1C(=O)[C@@H]1CCCN1C(=O)[C@H](CCCCN)NC(=O)[C@H](CCCCN)NC(=O)[C@H](CO)NC(=O)[C@H](CCC(=O)O)NC(=O)[C@H](CCCCN)NC(=O)[C@H](CCCNC(=N)N)NC(=O)[C@H](CCC(N)=O)NC(=O)[C@H](CCC(N)=O)NC(=O)[C@@H](NC(=O)[C@H](CCCNC(=N)N)NC(=O)[C@H](CCC(N)=O)NC(=O)[C@H](Cc1cnc[nH]1)NC(=O)[C@H](CCC(=O)O)NC(=O)[C@@H]1CCCN1C(=O)[C@H](CO)NC(=O)[C@H](CC(C)C)NC(=O)[C@H](Cc1ccccc1)NC(=O)[C@H](CO)NC(=O)[C@H](CO)NC(=O)CN)C(C)C)C(=O)N[C@@H](CCC(N)=O)C(=O)N1CCC[C@H]1C(=O)N[C@@H](CCCNC(=N)N)C(=O)O
AUC(0-last) (ELISA; healthy humans, both sexes, plasma; intravenous infusion, 4 µg/kg/h, 210 min): 44.9 ± 15.9 ng·h/mL

COc1cc(C(=O)NCCOCCOCCOCCNC(=O)c2ccc([18F])nc2)ccc1NC(=O)C1NC(CC(C)(C)C)C(C#N)(c2ccc(Cl)cc2F)C1c1cccc(Cl)c1F (centres unmarked)
tumour-to-tissue ratio (athymic male mice, HepG2 xenograft; 4 h; reference: tumour over muscle): 2.49 ± 0.58

For quick reference, copied from above:
CC(=O)NCC(=O)NCC(=O)N[C@@H](CCCCNP(=O)(O)O)C(=O)NCC(=O)NCC(N)=O
initial velocity (non-enzymatic hydrolysis; 100 µM, pH 7.8, no enzyme): 4.95e-09 M/s

COCCOCCOCCOc1ccc(/C=C/c2c(I)c(C)c3n2[B-](F)(F)[N+]2=C(C)C(I)=C(C)C2=C3c2cc(OC)cc(OC)c2)cc1
singlet oxygen quantum yield (DPBF absorbance decrease; DMSO; reference: methylene blue): 0.78
